Assay results pooled from the literature.
Each line is one published result; not all experiments were run side by side.
Observed: metabolic stability
Species: mouse

C#Cc1c(F)ccc2cc(O)cc(-c3ncc4c(N5CC6CCC(C5)N6C(=O)OCc5ccc(NC(=O)OCCCC)cc5)nc(OC[C@@]56CCCN5C[C@H](F)C6)nc4c3F)c12  half-life (liver microsomes; 1 µM, pH 7.4): 40.3 min
CN(CC(=O)N(Cc1ccc(C2CCCCC2)cc1)c1ccc(C(=O)O)cc1)S(=O)(=O)c1c(F)c(F)c(F)c(F)c1F  half-life (hepatocytes): 10.1 min
C#Cc1c(F)ccc2cc(O)cc(-c3ncc4c(N5CC6CCC(C5)N6C(=O)OCc5ccc(OC(=O)CCCC)cc5)nc(OC[C@@]56CCCN5C[C@H](F)C6)nc4c3F)c12  half-life (liver microsomes; 1 µM, pH 7.4): 0.61 min
C/C(=N\OCCCN1CCCCC1)c1ccc(C(F)(F)F)cc1  half-life (liver microsomes): 37.6 min
Cc1cc(=O)oc2cc(NC(=O)OCc3cc(C(C)C)c(N=[N+]=[N-])c(C(C)C)c3)ccc12  half-life (liver microsomes; 10 µM): 22.8 min
COc1cc(-c2ccc3oc(-c4ccsc4)c(C#CC4(O)CCCCC4)c3c2)cc(OC)c1OC  half-life (liver microsomes): > 30 min
N#Cc1ccc(NC(=O)c2cccnc2)cc1Cl  half-life (liver microsomes): 11.7 min
CNC(=O)C1CCN(c2ccccc2NC(=O)c2ccc(-c3cc(O)ccc3C)c(C)n2)CC1  half-life (liver microsomes; 2 µM): 9 min
COc1ccc(-c2ccc3oc(-c4ccc(OC)cc4)c(C#CC4(O)CCCCC4)c3c2)cc1  half-life (liver microsomes): > 30 min
CC[C@H](C)[C@H](N)C(=O)N[C@@H](CO)C(=O)N[C@@H](Cc1ccc(O)cc1)C(=O)NCC(=O)NCC(=O)N[C@@H](C)C(=O)N[C@@H](CC(=O)O)C(=O)N[C@@H](Cc1ccc(O)cc1)C(=O)N[C@@H](CCCCN)C(=O)O  half-life (HPLC; brain homogenate; 500 µM): 100 min
C#Cc1c(F)ccc2cc(O)cc(-c3ncc4c(N5CC6CCC(C5)N6C(=O)OC(C)OC(=O)CCCC)nc(OC[C@@]56CCCN5C[C@H](F)C6)nc4c3F)c12 (some centres unmarked)  half-life (liver microsomes; 1 µM, pH 7.4): 0.73 min

Excerpt of the above:
CN(CC(=O)N(Cc1ccc(C2CCCCC2)cc1)c1ccc(C(=O)O)cc1)S(=O)(=O)c1c(F)c(F)c(F)c(F)c1F  half-life (hepatocytes): 10.1 min
